Experimental data gathered from unrelated publications.
± gives the spread as reported.
SIRT1: NAD-dependent protein deacetylase sirtuin-1 (SIRT1, Homo sapiens, UniProt Q96EB6)
Sequence of UniProt Q96EB6 (whole entry, unmodified, looked up): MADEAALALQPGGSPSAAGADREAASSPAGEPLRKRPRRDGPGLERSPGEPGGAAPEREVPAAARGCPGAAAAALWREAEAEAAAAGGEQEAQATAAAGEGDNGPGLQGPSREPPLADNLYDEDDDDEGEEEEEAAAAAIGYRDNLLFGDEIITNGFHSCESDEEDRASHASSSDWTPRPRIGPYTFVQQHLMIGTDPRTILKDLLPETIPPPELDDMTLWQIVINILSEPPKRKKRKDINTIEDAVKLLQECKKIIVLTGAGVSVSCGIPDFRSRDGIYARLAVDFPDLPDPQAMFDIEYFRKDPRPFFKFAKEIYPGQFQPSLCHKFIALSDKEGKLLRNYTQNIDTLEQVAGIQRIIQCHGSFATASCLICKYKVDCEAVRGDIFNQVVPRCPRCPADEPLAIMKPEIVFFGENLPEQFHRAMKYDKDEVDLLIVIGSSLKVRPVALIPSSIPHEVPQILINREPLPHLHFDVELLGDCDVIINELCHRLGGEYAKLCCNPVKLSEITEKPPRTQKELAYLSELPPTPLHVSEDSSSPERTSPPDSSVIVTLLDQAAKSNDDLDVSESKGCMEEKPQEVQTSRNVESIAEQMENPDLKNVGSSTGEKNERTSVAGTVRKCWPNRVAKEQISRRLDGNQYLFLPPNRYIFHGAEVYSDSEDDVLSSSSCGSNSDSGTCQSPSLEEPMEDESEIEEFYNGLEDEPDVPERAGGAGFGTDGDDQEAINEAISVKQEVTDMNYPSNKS

COCCn1cc(COc2cccc(Cc3cnc(NC(=O)C(C)c4ccc(CC(C)C)cc4)s3)c2)nn1 (stereo not drawn)  IC50 (SIRT1; enzyme activity, inhibitor, fluorescence): > 100 µM
CCCCCCCCCCCCNC(=S)NCCCC[C@H](NS(C)(=O)=O)C(=O)N[C@H](C)C(=O)N[C@@H](CCCNC(=N)N)C(N)=O  IC50 (SIRT1; enzyme activity, inhibitor): 3.6 µM
CCCCCCCCCCCCCC(=S)NCCCC[C@H](NC(=O)[C@@H]1CCCN1C(=O)[C@@H](N)CC(C)C)C(=O)N[C@@H](CCCCN)C(=O)N[C@H](C(=O)O)[C@@H](C)O  IC50 (SIRT1): 4.7 µM
CN(Cc1ccc(F)cc1)Cc1cc(=O)oc2cc(O)ccc12  Kd (SIRT1; binding, SPR): 26.4 µM
CC(=O)NCCCC[C@H](NC(=O)[C@H](CCCCN)NC(=O)[C@H](Cc1c[nH]cn1)NC(=O)[C@H](CCCNC(=N)N)NC(C)=O)C(=O)Nc1ccc2c(C)cc(=O)oc2c1  Kd (NAD-dependent protein deacetylase sirtuin-1 (SIRT1, Homo sapiens, UniProt Q96EB6, C253S/C268S/C501S/C502S/del513-640/R446A); peptide binding, isothermal titration calorimetry; 10% glycerol; pH 7.5, 25 °C, R446A mutant, added: resveratrol 0.5 mM): 17.7 µM
CCCCCCCCCCCCCC(=S)NCCCC[C@H](NS(C)(=O)=O)C(=O)N[C@@H](C)C(=O)N[C@@H](CCCNC(=N)N)C(N)=O  IC50 (SIRT1; enzyme activity, inhibitor): 0.33 ± 0.08 µM
C#CC[C@H](NC(=O)[C@H](Cc1ccccc1)NC(=O)[C@H](CCSC)NC(=O)[C@H](CC(C)C)NC(=O)[C@H](CCCCNC(C)=S)NC(=O)[C@H](CCCCN)NC(=O)[C@H](Cc1c[nH]cn1)NC(=O)[C@H](CCCNC(=N)N)NC(=O)CCC1(C)N=N1)C(N)=O  IC50 (SIRT1; enzyme activity, inhibitor; pH 7.5): 0.11 µM
Cc1cc(C)nc(SCC(=O)Nc2ncc(Cc3cccc(OCc4cn(Cc5ccc(C#N)cc5)nn4)c3)s2)n1  IC50 (SIRT1; enzyme activity, inhibitor, fluorescence): > 100 µM
CCCCCCCCCCCCCC(=S)NCCCC[C@H](NC(=O)[C@H](CCCNC(=N)N)NC(=O)[C@H](C)N)C(=O)N[C@@H](CO)C(=O)N[C@H](C(=O)O)[C@@H](C)O  IC50 (SIRT1): 4.4 µM
O=C(NO)c1ccc(Cn2sc3ccccc3c2=O)cc1  IC50 (SIRT1; enzyme activity, inhibitor): 1.2 µM
Cc1cc(C)nc(SCC(=O)Nc2ncc(Cc3cccc4ccccc34)s2)n1  IC50 (SIRT1; enzyme activity, inhibitor, fluorescence): > 100 µM
CC(=S)NCCCC[C@H](NC(=O)[C@H](CCCNC(=N)N)NC(=O)[C@H](C)NC(=O)[C@@H](NC(=O)[C@H](CCC(N)=O)NC(=O)[C@@H](N)CCCCN)[C@@H](C)O)C(=O)N[C@@H](CO)C(=O)N[C@H](C(=O)NCC(=O)NCC(=O)N[C@@H](CCCCN)C(=O)N[C@@H](C)C(=O)O)[C@@H](C)O  IC50 (SIRT1; enzyme activity, inhibitor, HPLC): 1 to 2 µM

For quick reference, copied from above:
O=C(NO)c1ccc(Cn2sc3ccccc3c2=O)cc1  IC50 (SIRT1; enzyme activity, inhibitor): 1.2 µM
Cc1cc(C)nc(SCC(=O)Nc2ncc(Cc3cccc4ccccc34)s2)n1  IC50 (SIRT1; enzyme activity, inhibitor, fluorescence): > 100 µM
